Assay results pooled from the literature.
Every numbered part comes from another study and shows a few of its results, in no order.

Block 1
Target: RNA binding protein fox-1 homolog 2, RRM domain, GST-SBP tag (RBFOX2, Homo sapiens, UniProt O43251-10, residues 100-194)
Technique: RNA Bind-n-Seq
Form: RNA
Matrix: in vitro
Tested at: 365 nM
Setting: natural RNA segment, single round, ends assumed
Relative to: no-protein control
Reading: higher = stronger binding
Shared flanks, not repeated: GGGAGUUCUACAGUCCGACGAUC … UGGAAUUCUCGGGUGCCAA
Residues (chain): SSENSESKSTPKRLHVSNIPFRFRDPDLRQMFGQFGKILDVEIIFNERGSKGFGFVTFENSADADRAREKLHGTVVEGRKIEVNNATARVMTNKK
Oligonucleotide | RBNS enrichment (R)
ACCUUUUUGCCCAUCACAUUAACUUUCCUGGAAUAUUGUGCUGCACAGGUAGACCUGAAUCUGCCCAGCUUGUUGACAGCUCUUGUGUAUACUGUGUUGAAGCCAGACAG | 1.14
GUGGGUAAAAGGGGCUUCAAAAAACGGAUAGAACAGGAUUUUCUAGGAGUUACACAUACAUUUUAUCCUGUCAUACCUCGAGAUAAAGUGGCAUGUUAGUGAGGAGUUCU | 0.801
GUAAAUAUGGAAAUGCCACAUUGGUUAAGUGCCAUCAAUUGUAAUGCAGUGUGUCAUUUGAAAAGAGAUUUGAAGAACUGACAGCUUAAAGCCCAAGCGGGAAACCCGCC | 0.472
UUUUAAAUAAGAAAAUAAUCUACACAGUCAAGAUACCUAGCAAAUAAGUGGUGCCAUUGGAAUGUCAGCAUUGCUUGAGUGUCAUGCUGAGGGAUGGUCCUGACAGUAAA | 0.647
GGCAUUUCUUUAUGGAUGGAAUUGGAACAUGAACAAGACCAUGUCCAGCGUUUUUACUGUGAAUGUAAAUGGAACAGCAGCCCAAAGCUGUUGUCUGUGCCCCAGAGGUG | 0.309
CCUGUCCGUCAGAGACUUCUCAAUCCAGUGGCAGUUGGGAUGGGGUUAUGAGGCCUGUCAGGUCUAUGCACAGCAGGGACUCUGUCUUUGGUGAGCUUUCUCAGAGCCAU | 0.286
GUAAGGCUCCUGUUGGCCAGUAGCUUGUGAUCUGGGACCUCUGGGGCCUCGUGUCUGCCUCACUCCCGGGCCCCAGUCCUGGGUGAAGUUGGCAAAGCACUGGGUAUCUU | 0.805
UUUAAGGAUGAGCCAAUAGUAAGAAUGUGGCUGUAAUCAGCAGAGACCCCUCUGAGGGGUAUCUGUUCUGCAGCCCCUAGUGAAAUCAUGUGAUGUGAGACAGAAACCUA | 0.44
GUGGCACAAUCAGCUCACUGCAACCCCUCCUCCUAGGUUCAAGCGAUUGAGUAGCUGAGAUUACAGGCAUGCAUCACUAUGCCUGGCUUUUUGUAUUUUUUAGUAGAGAU | 1.67
CAUUAACUUCUCUGGAAAGGGGGGAGCUGGGGAAACUCAAACUUUUCCCCUGUCCUGAUGGUCAGCUCCCUUCUCUGUAGGGAACUCUGGGGUCCCCCAUCCCCAUCCUC | 0.322
GCCCAGCCCCGCCCCAGCCCCUGCUCAGGUCUGAGUAUGGCUGGGAGUCGGGGGCCACAGGCCUCUAGCUGUGCUGCUCAAGAGACUGGAUCAGGGUAGCUACAAGUGGC | 0.298
UGACGGGGGCUCCAUACGGACCUGGGGACUGGGCUGAGAGGGUGGACGAGUUCAGGUUUGUUUUUGCAGCAGAUUCCGUCGUUCUUACUGAGUCUGCAGCGGGGGAGUGA | 1.15

Block 2
Target: Interferon regulatory factor 3, full length, phosphomimetic (IRF3, Homo sapiens, UniProt Q14653, residues 1-427, S386D/S396D/S398D/S402D/T404D/S405D)
Technique: protein-binding microarray
Form: double-stranded DNA, one strand shown
Matrix: in vitro
Tested at: 2540 nM top
Setting: 60-bp whole probe
Added: salmon DNA 0.4 mg/ml
Relative to: random background probes
Reading: higher = stronger binding
Shared flanks, not repeated: GCCTAGCAC … GTCTTGATTCGCTTGACGCTGCTG
Target sequence (chain): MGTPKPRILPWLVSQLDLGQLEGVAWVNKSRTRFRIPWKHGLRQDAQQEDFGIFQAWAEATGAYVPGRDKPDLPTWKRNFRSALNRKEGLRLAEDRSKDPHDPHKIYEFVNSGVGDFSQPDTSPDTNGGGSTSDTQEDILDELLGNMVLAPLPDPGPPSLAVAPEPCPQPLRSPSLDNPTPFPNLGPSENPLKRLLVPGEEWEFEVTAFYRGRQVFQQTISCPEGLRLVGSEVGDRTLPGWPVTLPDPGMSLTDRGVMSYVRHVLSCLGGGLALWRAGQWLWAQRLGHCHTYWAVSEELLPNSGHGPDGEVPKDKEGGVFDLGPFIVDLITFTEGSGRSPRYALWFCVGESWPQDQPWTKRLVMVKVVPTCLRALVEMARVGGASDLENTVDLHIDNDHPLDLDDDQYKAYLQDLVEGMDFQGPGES
Oligonucleotide | fitted relative affinity [z-score]
GACGGTTTCAGACTGGAGACGTGCTAG | 2.58
GACGGAATGGGACTGGGGACGTGCTAG | -0.612
GACGATCTCAGACTGGAGTCGTGCTAG | 0.502
GCGGTTGGATCACAAGGTCAGTGCTAG | 0.125
TTTGGACTGGGTCTCGGTTAGTGCTAG | -0.711
GACGATATCGGGACTGCAGACGTGCTA | 0.125
GACGGGATCGGTATCGGGACGTGCTAG | 1.79
TCATGTTTGGTCCTGATACTGTGCTAG | 0.314
GATGGTTTCCTACTGCTGACGTGCTAG | 5.09
TTAGGTTTCGACACTGGGGTAGTGCTA | 2.54
TCATCTTTCGATGCTAAAACTGTGCTA | 1.69
GACGGTATCGGGGATCGGGACGTGCTA | 0.554
TTAGATTTCGGGTTTCCATTAGTGCTA | 3.32
TTCTGAAGCAGAGCCCTGTTGTGCTAG | -0.198
CTGGGGGCAGTTTCATGGCCGTGCTAG | -0.173
TCAAATTTTAGTAACACACTGTGCTAG | 0.0243
GACGATTGCGGGACTGGAGACGTGCTA | -0.23
TTGGCTTCCTCTTTCTCTGCGTGCTAG | 0.518
TTACGTATCGACTTTCGGTTAGTGCTA | 2.32
GACGGTATCGTTCTCCTGACGTGCTAG | 4.32
TTAGGACTGGGTATGGGTTAGTGCTAG | -0.933
TTAGGACTGGATACTGGGTTAGTGCTA | -0.361
TTAGGTTTCGGTCTCGGTCAGTGCTAG | 8.2
GACGGTATCCTTATTCTGACGTGCTAG | 5.06

Block 3
Target: RING finger protein unkempt homolog, zinc fingers 1-6, GST-SBP tag (UNK, Homo sapiens, UniProt Q9C0B0, residues 30-357)
Technique: RNA Bind-n-Seq
Form: RNA
Matrix: in vitro
Tested at: not given
Setting: RNA with constant flanks, ends assumed
Relative to: input RNA pool
Reading: higher = stronger binding
Shared flanks, not repeated: GGGAGUUCUACAGUCCGACGAUC … CAACAGAGGAUUGAGCAUCA
Construct (chain): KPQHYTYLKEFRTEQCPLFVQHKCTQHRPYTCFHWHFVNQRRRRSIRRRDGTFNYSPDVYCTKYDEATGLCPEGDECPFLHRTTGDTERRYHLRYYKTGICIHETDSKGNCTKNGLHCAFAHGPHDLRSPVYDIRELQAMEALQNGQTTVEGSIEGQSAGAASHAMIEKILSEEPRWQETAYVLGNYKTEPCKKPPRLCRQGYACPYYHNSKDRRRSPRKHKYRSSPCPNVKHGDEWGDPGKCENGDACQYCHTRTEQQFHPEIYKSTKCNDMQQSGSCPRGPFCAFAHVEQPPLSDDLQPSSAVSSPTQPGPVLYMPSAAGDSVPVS
Oligonucleotide | bound/input enrichment
AUGACUCUGCUGUUCUAAGCCUCCCAUGGUUCUCUUGUAACUGUGUUGGCUUGCUUUAAAACCGAGCAAGCCUAGGGCUGGUGAGAUGGCUCAGUGGGUAAGAGCACCCGACUGCUCUUC | 0.0751 ratio
UUGUCUCCUGCAUUCCAUCAAGCACUACUCUCUUUUUGUCGAAUGUCAGCAGAUAGUCGUUCCGGAUACGAGGUGUCUCGUAUUGCAGACAGUGAAAAAAGCGUUAUGUUAAUGCUGGGA | 0.101 ratio
CGGUUUGCAGUCCCACCAGCACUCGGCAGUAAUCUGGCUGACAAUGUCAUGAUUACUGCCGAUAUUAUUCCUUCUGGUUGGAAUUCAACUGAUGGGAAAAAUGAUAAAGCUAAAAGUGCA | 0.107 ratio
AUAAAGAUAUCUAGCCAAAAUCUCAAUCUUGCCUUAACAAUGUUUCAGAGACUGAAUAAAAUGUUUGCCGGCGAAGUCACUACUUCUUCCAGCCAAGAACCAGAAUUCAGUGAGAAAGAA | 0.615 ratio
AAAUACAAGCAAGCUUUACUACAGUAUAAGAAGAUCGUGUCUUGGCUGGAAUAUGAGUCCCGUUUUUCCAAUGAGGAAGCACAGAAAGCACAGGCCCUUCGACUGGCCUCUCACCUCAAC | 0.14 ratio
GGGGGCGGGUGGAGGGUAGGAUUUGUGCUGGAUGAGGCCGCUGCUUCCUCGGACCCCAGAACCCGGACUUGGCCACGUUGCAGCCCCCGUUCGGGUAACGUUUUUCUUCACGCCGCAGCC | 0.34 ratio
UCUGUAGGAUGGCCAGCAUCCCGUGGUCCCUUUCAGCUGCUCAGUGCAUCCCUUGCAUCAUCCGUACCCUGUCUUGACAGCUUGAGGUCCUGGCAGUCUAUGUUUGCCCUUUGCUCAGGG | 0.104 ratio
AGUAUUAUUUAGUGAAUUAAUCUGACCGUACAGAAGAGUCAUGUUCUGACCUCAAUACUACCGUAACUUUUAGGCUUGGAAAUAAAAGUUUGUUGGUAUCUACUGGCAAGUAUUUAAGUU | 1.12 ratio
UGGUAUCUCUUCUUAGUGUUCUAUUUAUCUUAUUUGCUAAUGAGAACAAUUCUUCUUCUGUCCGGCUGUGCUUUAUUGAUAAAACCAAGUAUUGAAUAAAGAGAGUUAAUUAUCUUUUUA | 1.16 ratio
UUUAUUGAUCAGGUCUGUAAAUGUGUACUGAAAAAAAUCAGAGUUUAUUUAUAAACCGAACCGUUUAUUUAAAGAGGUAUUUUCCUCCUUGAUAUCAUGGUAUGCAUAAUUCUGUGUGUU | 0.054 ratio

Block 4
Molecule: LQVDDDSGDPLNLVKA
Effect on: yeast growth
Technique: competitive growth deep sequencing
Form: peptide
Organism: Saccharomyces cerevisiae
Setting: peptide tiling library
Reading: direction not given
target | enrichment score
human cyclin B1-Cln2 fusion | -0.105
human cyclin F-Cln2 fusion | -0.313
human cyclin E1-Cln2 fusion | 0.499

A few entries again (block 1):
Oligonucleotide | RBNS enrichment (R)
GUAAAUAUGGAAAUGCCACAUUGGUUAAGUGCCAUCAAUUGUAAUGCAGUGUGUCAUUUGAAAAGAGAUUUGAAGAACUGACAGCUUAAAGCCCAAGCGGGAAACCCGCC | 0.472
UUUUAAAUAAGAAAAUAAUCUACACAGUCAAGAUACCUAGCAAAUAAGUGGUGCCAUUGGAAUGUCAGCAUUGCUUGAGUGUCAUGCUGAGGGAUGGUCCUGACAGUAAA | 0.647
GGCAUUUCUUUAUGGAUGGAAUUGGAACAUGAACAAGACCAUGUCCAGCGUUUUUACUGUGAAUGUAAAUGGAACAGCAGCCCAAAGCUGUUGUCUGUGCCCCAGAGGUG | 0.309
CCUGUCCGUCAGAGACUUCUCAAUCCAGUGGCAGUUGGGAUGGGGUUAUGAGGCCUGUCAGGUCUAUGCACAGCAGGGACUCUGUCUUUGGUGAGCUUUCUCAGAGCCAU | 0.286
GUAAGGCUCCUGUUGGCCAGUAGCUUGUGAUCUGGGACCUCUGGGGCCUCGUGUCUGCCUCACUCCCGGGCCCCAGUCCUGGGUGAAGUUGGCAAAGCACUGGGUAUCUU | 0.805
UUUAAGGAUGAGCCAAUAGUAAGAAUGUGGCUGUAAUCAGCAGAGACCCCUCUGAGGGGUAUCUGUUCUGCAGCCCCUAGUGAAAUCAUGUGAUGUGAGACAGAAACCUA | 0.44
GUGGCACAAUCAGCUCACUGCAACCCCUCCUCCUAGGUUCAAGCGAUUGAGUAGCUGAGAUUACAGGCAUGCAUCACUAUGCCUGGCUUUUUGUAUUUUUUAGUAGAGAU | 1.67
